Assay results from different studies.
Every numbered part comes from another study and shows a few of its results, in no order. Substitutions count along the parent as printed.

Block 1
Target: Sal-like protein 4, full length isoform B (SALL4, Homo sapiens, UniProt Q9UJQ4-2, residues 1-616)
Technique: universal PBM
Molecule type: double-stranded DNA, one strand shown
Sample: in vitro
Tested at: not given
Setting: 8-mer, flanks averaged, mean of replicates
Reading: higher = stronger binding
Endpoint: E-score
ACCGTGAG: -0.26
AGCCCTTA: 0.0605
AGCCTTGA: -0.00426
CATGTAAC: 0.239
AGCAAGAC: 0.0484
AAAGAGAC: -0.00666
CGGCATCC: -0.177
GTCCTCGA: -0.199

Block 2
Target: RING finger protein unkempt homolog, zinc fingers 1-6, GST-SBP tag (UNK, Homo sapiens, UniProt Q9C0B0, residues 30-357)
Technique: RNA Bind-n-Seq
Molecule type: RNA
Sample: in vitro
Tested at: not given
Setting: RNA with constant flanks, ends assumed
Baseline: input RNA pool
Reading: higher = stronger binding
Endpoint: bound/input enrichment
Shared flanks, not repeated: GGGAGUUCUACAGUCCGACGAUC … CAACAGAGGAUUGAGCAUCA
Construct (chain): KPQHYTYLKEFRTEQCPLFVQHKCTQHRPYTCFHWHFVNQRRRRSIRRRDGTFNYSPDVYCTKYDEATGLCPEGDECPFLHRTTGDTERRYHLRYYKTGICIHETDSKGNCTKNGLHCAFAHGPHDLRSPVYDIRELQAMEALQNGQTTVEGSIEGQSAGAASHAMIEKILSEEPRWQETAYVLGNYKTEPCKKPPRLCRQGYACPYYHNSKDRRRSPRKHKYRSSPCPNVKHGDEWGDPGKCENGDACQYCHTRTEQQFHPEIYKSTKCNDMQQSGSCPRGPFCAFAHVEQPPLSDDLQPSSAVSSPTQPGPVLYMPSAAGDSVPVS
GUCAGGGAACCGGAGCCGGGCCGCCGCGCUGUGGAGAAGCUGCGUCGGGGCGCACAGGUUAUCCGAAAUGGCUACUCCACAGUCAGUUUUCGUCUUUGCAAUCUGCAUUUUAAUGAUAAC: 0.211 ratio
CAGAUUGGAAAGAUGAGAUAUGUCAGUGUUCGGGACUUCAAAGGAAAAAUUCUAAUUGAUAUCCGAGAAUAUUGGAUGGAUUCAGAAGGUGAAAUGAAACCAGGAAGAAAAGGUAUUUCU: 0.172 ratio
CAUCUUAGGUCAUCUUCUGUAGAAGAUGUUAAACUAAUUAUAAGCGAGGGGAGACCUACCACCGAAGUUCGAAGAUGUAGCAUGCCUUCUGUCAUUUGUGAACAUACCAAACAAUUCCAA: 0.218 ratio
CCUAAGCAGACCUCCUCCUACAACAUCCCUGCCUCUGCCAGCAUCUCUCGGACAUCCAUCCGCAGAUAUGACUCUUCCUUCAGGUACACAGGCAGCCCAGACAGCCUCCGGUCCCGGGUC: 0.225 ratio
AAUGUCAUCGAUGCCAAUUUCUGCAUGAAAGGAGAAGACCUGGACUCUCAGGUUGGAGUUACCGAUUUUUCGAUGUAUCUCAAAGAUGGAAACAGUAGUAAAGGUAGUGAAGGGGAUGGA: 0.761 ratio
CAAAAGAAGAACAAGAUCCAUACUUUGGAGGACUUCCAGCGGGUUAUCAAUGUGAAUCUUACCGGCACUUUCAAUGUGAUCCGCCUGGUUGCUGGGGAGAUGGGCCAGAAUGAACCAGAC: 0.193 ratio
AGAAGGAACACCUUCCAAAUUUUGCUUCAAGCUCUGAAAAAAGGAGCACACAGGGGAACCUCCGUCUUGCUUGUGGAUCGAAGCAAAUACUAUCACAGCGAGGAACUGGGACUUUGUGUG: 0.0543 ratio
AAAUUAGUGGGCAAAGAAACAUUCUAUGUUGGAGCUGCAAAGACAAAAGCGACCAUAAAUACCGACGCUAUCAGUGGUUUUGCUUAUGAAUAUACUCUGGAAAUUAAUGGGAAAAGUCUC: 0.315 ratio

Block 3
Target: Sox, HMG box (Pigoraptor chileana)
Technique: Spec-seq
Molecule type: double-stranded DNA, one strand shown
Sample: in vitro
Tested at: not given
Setting: whole probe, mean of replicates
Baseline: not given
Reading: lower = stronger binding
Endpoint: relative binding energy
Shared flanks, not repeated: GAGTCGTCTCGTCAGCAC … CCGTAGAGCACTCAGGTC
Target sequence (chain): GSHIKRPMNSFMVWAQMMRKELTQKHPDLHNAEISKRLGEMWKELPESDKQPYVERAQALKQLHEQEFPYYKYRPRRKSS
TTATGTT: -1.51 ln ratio
CATTTAA: 0.0363 ln ratio
AGTGGTT: -0.791 ln ratio
AACCGTT: -0.197 ln ratio
TGGGGTT: 0.685 ln ratio
CATCGGT: 0.608 ln ratio
GTTTGTT: -2.09 ln ratio
TCGAGTT: 1.1 ln ratio

Other studies, line by line
Parent: viral docking peptide; KGVKRKLFAEDSS
KGVKRHLFAEDSS [K6H]  normalised enrichment score (CCNA2, cyclin fold, Cln2 fusion (human); yeast growth competition, sequencing; yeast; strong parent motif; baseline: not given, higher = stronger binding): 3.42
